Results from different studies.
A part holds a random share of what one study measured. Changes are numbered by the printed parent chain.

Set 1 — method: aptamer microarray, sandwich; form: DNA with 2'F-ANA; sample: in vitro; tested at: 200 nM; together with: Cy3 exosite-II aptamer, 400 nM; reading: higher = stronger binding; endpoint: mean fluorescence intensity; strand: GGTTGGTGTGGTTGG
Target: Prothrombin, mature alpha-thrombin (F2, Homo sapiens, UniProt P00734)
Setting: whole 15-mer aptamer, many near background
2'F-ANA at 2 3 5 9 10 11 12 13: 56.2 a.u.
2'F-ANA at 1 2 3 4 5 8 11 13 14: 47.3 a.u.
2'F-ANA at 1 3 6 7 14: 82.9 a.u.
2'F-ANA at 3 5 7 8 9 10 15: 70.1 a.u.
2'F-ANA at 2 3 4 6 7 8 9 12 13 15: 554 a.u.
2'F-ANA at 1 2 3 4 6 7 9 10 14: 50.5 a.u.
2'F-ANA at 1 4 5 6 7 13 14 15: 45.9 a.u.
2'F-ANA at 1 5 10: 81.4 a.u.
2'F-ANA at 2 3 4 5 8 9 11 13 15: 61.7 a.u.
2'F-ANA at 5 7 8 10 11 14 15: 46.7 a.u.
2'F-ANA at 1 2 10 12 15: 74.8 a.u.
2'F-ANA at 1 2 3 4 5 7 9 11 12 13: 68.5 a.u.
2'F-ANA at 1 6 7 8 10 12: 71.3 a.u.
2'F-ANA at 2 4 7 8 10 13: 98.9 a.u.
2'F-ANA at 2 3 4 5 8 9 12 13: 111 a.u.
2'F-ANA at 2 4 6 10 15: 80.3 a.u.
2'F-ANA at 2 5 7 8 9 11 13 14 15: 44.7 a.u.
2'F-ANA at 8 15: 676 a.u.
2'F-ANA at 1 6 7 8 9 11 12 13: 220 a.u.
2'F-ANA at 1 4 5 7 8 11 12 13 14 15: 46.4 a.u.
2'F-ANA at 1 2 4 6 8 11: 105 a.u.
2'F-ANA at 6 7 8 10 11 13 14: 98.7 a.u.
2'F-ANA at 1 4 6 7 9 10 11 13: 47.4 a.u.
2'F-ANA at 5 9 12 13: 107 a.u.
2'F-ANA at 1 3 6 7 8 10 11 12 13 14 15: 98.4 a.u.

Set 2 — method: protein binding microarray; form: double-stranded DNA, one strand shown; sample: in vitro; tested at: not given; reference: not given; reading: higher = stronger binding; endpoint: E-score
Target: Histone acetyltransferase KAT6A, winged helix 2, GST fusion (KAT6A, Homo sapiens, UniProt Q92794, residues 85-181)
Setting: 8-mer, flanks averaged, mean of 2 arrays, mostly near background
Target sequence (chain): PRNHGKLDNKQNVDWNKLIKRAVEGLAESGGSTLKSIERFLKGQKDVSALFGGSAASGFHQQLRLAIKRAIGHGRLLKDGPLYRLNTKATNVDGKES
CTAAACGA: 0.0465
ATTGGAAA: 0.0509
CAAGATTG: -0.0604
AGCGAGAG: 0.0294
ATGTTTCG: 0.0919
CCCATACC: -0.127
AGATTAGC: -0.034
AATCGGTG: -0.0397
CCGCATTC: 0.1
CAATATGG: -0.00523
ACTCCCGA: 0.101
AGGTAGGG: -0.0886
GTTCGTCA: -0.0439
ACCGATTG: -0.0156
ACCCCGCT: 0.127
ACCCTGTA: 0.0646
CAATGTGA: -0.0428

Set 3 — target: NFE2L3, bZIP domain (human); method: DHFR protein complementation; sample: yeast; reference: wild-type JUN-FOS pair; reading: higher = stronger binding; endpoint: binding fitness
Setting: single substitutions, most at no-binding floor
Starting sequence: JUN, bZIP domain (human); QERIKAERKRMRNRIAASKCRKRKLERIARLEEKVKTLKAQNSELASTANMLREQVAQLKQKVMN; partner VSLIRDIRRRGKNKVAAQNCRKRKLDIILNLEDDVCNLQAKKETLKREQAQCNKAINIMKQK
A49N: -1.47 natural log
V56P: -1.57 natural log
M51K: -1.61 natural log
T48G: -1.56 natural log
K39R: -1.38 natural log
S43T: -1.4 natural log
R53G: -1.61 natural log
K36E: -1.27 natural log
I28P: -1.53 natural log
A57P: -1.56 natural log
E44Q: -1.47 natural log
L45F: -1.3 natural log
L38T: -1.55 natural log
S47G: -1.29 natural log
I28L: -1.44 natural log
L38G: -1.48 natural log
Q41D: -1.28 natural log
A46E: -1.57 natural log
M51G: -1.34 natural log
T37Q: -1.49 natural log
R53I: -1.31 natural log
E32K: -1.58 natural log
A29T: -1.35 natural log
A46R: -1.31 natural log
I28T: -1.28 natural log

Set 4 — method: RNA Bind-n-Seq; form: RNA; sample: in vitro; tested at: 365 nM; reference: no-protein control; reading: higher = stronger binding; endpoint: RBNS enrichment (R)
Target: RNA binding protein fox-1 homolog 2, RRM domain, GST-SBP tag (RBFOX2, Homo sapiens, UniProt O43251-10, residues 100-194)
Setting: natural RNA segment, single round, ends assumed
Shared flanks, not repeated: GGGAGUUCUACAGUCCGACGAUC … UGGAAUUCUCGGGUGCCAA
Construct (chain): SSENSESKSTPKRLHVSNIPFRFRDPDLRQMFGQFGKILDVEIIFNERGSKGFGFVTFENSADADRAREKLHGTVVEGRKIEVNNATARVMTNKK
AGGUGGCCUAGGUCCUGGAGAUGAGCACCCUCUCUCUGGCCUUUAGGGAGUCCCCUCUUAGGACAGGCACUGCCCAGCAGCAAGGGCAGCAGAGUUGGGUGCUAAGAUCC: 0.248
CGCCACGCCAGCUCCUGGGUCGUUUUCAUUUAUCUGGCAGAGCCCAGGACCCUUAGAAUCAUAUUUUAGCUGAAGGAUGCUCACUGAUGCGGCCGAGGGCUUGGGAUACU: 0.373
GGCUGGGACAGGCUUUGAUUUUGAGGGUUAGCAAGACAAAGCAAAUAAAUGCCUUCCACCUCACCGCAAACCUUCUGCUAAAUUGCAUGACCAGGCUUUCCAAAAACAAG: 1.44
GAAACAGUUUAACAGAAAAAUGAAAUUUAAGCACAAAAAAUUUAAGAGAUUUUAUGUUUAAAAUGGCAUUUAGCACAGUAUUUAACAUUCUUGGUCACAAAGCUAUUUAA: 0.559
AUAAUGAAGAGAAGAAGGACAGACGCAAAGAAGAAAAGGAUAGUCUCAAGAUUGCAACAGGGAGCAGAACUUGACACUUACAUUUUUUUAAACCUGAUUUUUGUUUUCAA: 0.98
CGAGUAAAGUAUUAUGUUUCUUCUUGUCACCCCAGUUCCCUUGGUGGCAACCCCAGACCCAACCCAUGCCCCUGACAGAUCUAGUUCUCUUCUCCUGUGUUCCCUUUGAG: 0.559
AGGCAUCUCAAAUCCACUGACAGAUAAGAAAACCGCGUUAGAGGGAAAGUCACCUCUGCUAUUGUAGAAAGUGGCAGAAUAUCCAAACUUAACUCUAGCUUCCAUGUCUG: 0.289
UGAGCCCAAAUUCAGGAUUGGUUCAGUGGCAGCAAUGAAGUUGCCAUUUAAAUUUGUUCAUAGCCUACAUCACCAAGGUCUCUGUGUCAAACCUGUGGCCACUCUAUAUG: 0.286
AGUGUCAGGACUUUGCAGUGUAGCUCAUGCAAAGAGAGUGUUCUAUAAAAAUCUUGACAGCUGAACUCAGUUGCUCUUUCCUGGCAGGAGGUGGGGGUGGGAUCUAACAU: 0.658
CAAAUCAGUGUUAGUGACAAGCCCCGACCGUGGCGAUGUGCUGGAAAACACGGACCUUUUGGGUUAAAAGCUUUAACAUCUGUGAGGAAGAACUGGUCACAUGGGUUUGG: 0.603
UUAAAAAUACAUAGUCAUCCAAGGUUUUCUAAAAAUUGAAAUCAUAUGUUGGGAAUGGUAAAAAGGUUUUCAAAUGGUUUAUUUUUCCUCUUUUAUAAAUAAGUUUUACA: 0.909
AAGAAGCAGUGAGGUCUGGGAAUAUUCCAAAGUCAUGUCUCUGAAUAUGUGUCCUUGACGUGCAAGCUUUGUAAAACCCCAUCCCCGCUUAGGUGCGAGGCAUCACCUUC: 0.382

Set 5 — method: universal PBM; form: double-stranded DNA, one strand shown; sample: in vitro; tested at: not given; reading: higher = stronger binding; endpoint: E-score
Target: Sal-like protein 4, full length isoform B (SALL4, Homo sapiens, UniProt Q9UJQ4-2, residues 1-616)
Setting: 8-mer, flanks averaged, mean of replicates
Construct (chain): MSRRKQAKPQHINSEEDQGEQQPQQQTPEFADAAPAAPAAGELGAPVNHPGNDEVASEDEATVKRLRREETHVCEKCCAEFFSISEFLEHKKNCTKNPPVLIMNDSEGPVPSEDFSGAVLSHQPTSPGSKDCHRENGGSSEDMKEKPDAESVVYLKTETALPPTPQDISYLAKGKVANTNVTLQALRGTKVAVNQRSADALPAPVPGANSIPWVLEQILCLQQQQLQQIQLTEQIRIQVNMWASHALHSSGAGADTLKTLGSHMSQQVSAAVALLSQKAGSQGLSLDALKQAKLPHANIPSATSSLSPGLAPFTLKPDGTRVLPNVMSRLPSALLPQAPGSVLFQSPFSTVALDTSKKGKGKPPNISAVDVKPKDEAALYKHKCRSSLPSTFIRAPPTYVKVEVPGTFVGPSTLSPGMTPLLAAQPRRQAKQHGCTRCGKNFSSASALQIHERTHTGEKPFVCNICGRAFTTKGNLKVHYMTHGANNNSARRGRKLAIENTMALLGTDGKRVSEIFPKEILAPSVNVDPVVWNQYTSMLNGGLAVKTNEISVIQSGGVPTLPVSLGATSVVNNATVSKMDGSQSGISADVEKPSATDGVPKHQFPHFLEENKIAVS
TTCGCGAA: 0.168
CCGCCTCG: -0.253
GCCCTAAA: -0.0899
AGAGACCG: -0.242
CCTAGGAA: -0.0443
CAAGCGTA: 0.0801
AGCCATAG: -0.0705
AACGAGCG: 0.00197
ATTTCCCG: 0.0127
AAAGAAAA: 0.242
CACAGCGC: -0.289
ACAGGCTA: -0.0936
AGCGGTAC: -0.121
AGTTCGCG: -0.191
CATGCTAC: -0.0922
GCGGGAGC: -0.274
TCTGCACA: 0.133
CGCTGCAG: -0.269
CCCAGATC: -0.313
ATTAGTTG: 0.261
AAAAGCTC: -0.0636
ATTGCCGC: -0.0869
ACTGTGCC: -0.0771

Set 6 — method: RNAcompete; form: RNA; sample: in vitro; tested at: 20 nM; setting: 7-mer, probes averaged, single round; reference: mean of 7-mers; reading: higher = stronger binding; endpoint: 7-mer Z-score
Target: PABPC1L2, full length, GST fusion (mouse, UniProt A0ABA7IW68)
Residues (chain): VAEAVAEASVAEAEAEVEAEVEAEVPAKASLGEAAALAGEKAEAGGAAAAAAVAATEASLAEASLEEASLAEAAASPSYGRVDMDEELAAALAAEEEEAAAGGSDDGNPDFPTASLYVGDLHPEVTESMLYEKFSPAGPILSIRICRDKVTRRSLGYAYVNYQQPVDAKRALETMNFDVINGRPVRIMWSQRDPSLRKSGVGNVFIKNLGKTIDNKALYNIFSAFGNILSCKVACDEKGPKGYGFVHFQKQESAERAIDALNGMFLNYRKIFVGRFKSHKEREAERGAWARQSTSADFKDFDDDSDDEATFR
AAAAGGC: 3.27
GCGGCCU: -0.28
GUGUAAC: -0.122
CGUGAGC: -0.38
ACCCUCA: -0.2
GAUUGUG: -0.271
ACCGAAG: -0.0645
CUUGAAA: 0.427
AACAAUG: 1.11
CAACAGC: -0.204
UCAGAGA: -0.0246
GGGAAGA: 0.26
GCGAGCC: -0.11
CACGACA: -0.0192
CCGCCGA: -0.258
CCAGGAG: -0.0518
AUGUUUG: -0.431
CCUUCAG: -0.374
GCCCGCC: -0.496
CUUGGAG: -0.141
CGCCACU: -0.291
UCGGAAA: 0.472
CAUCGAU: -0.179
UUGGGAU: 0.0315
AAGAGAU: 0.602

A few entries again (set 3):
L38T: -1.55 natural log
S47G: -1.29 natural log
I28L: -1.44 natural log
L38G: -1.48 natural log
Q41D: -1.28 natural log
A46E: -1.57 natural log
M51G: -1.34 natural log
T37Q: -1.49 natural log
R53I: -1.31 natural log
E32K: -1.58 natural log
A29T: -1.35 natural log
A46R: -1.31 natural log
I28T: -1.28 natural log
